Assay results from different studies.
Compare with care: the assays were run in different laboratories. Bridges are numbered along the chain shown (N, C = ends). Where no end group is shown, it is not given here.
Organism: Staphylococcus aureus

Substance	test	system	setting	MIC
CN[C@H](CC(C)C)C(=O)N[C@H]1C(=O)N[C@@H](CC(N)=O)C(=O)N[C@H]2C(=O)N[C@H]3C(=O)N[C@H](C(=O)N[C@H](C(=O)O)c4cc(O)cc(O)c4-c4cc3ccc4O)[C@H](O)c3ccc(c(Cl)c3)Oc3cc2cc(c3O[C@@H]2O[C@H](CO)[C@@H](O)[C@H](O)[C@H]2O[C@H]2C[C@](C)(N)[C@H](O)[C@H](C)O2)Oc2ccc(cc2Cl)[C@H]1O	–	MRSA ATCC BAA-1720	20 h	2 µg/mL
O=c1cc(C(F)(F)F)[nH]c2cc(C(F)(F)F)cc(N[C@H]3CC[C@H](C(F)(F)F)CC3)c12	–	–	–	< 0.125 µg/mL
CC[C@H](C)[C@H](NC(=O)[C@H](CC(=O)O)NC(=O)[C@H](Cc1ccccc1)NC(=O)[C@H](CC(C)C)NC(=O)CN)C(=O)N[C@H](C(=O)N[C@@H](CCCCN)C(=O)N[C@@H](CCCCN)C(=O)N[C@@H](CC(C)C)C(=O)N[C@@H](CC(C)C)C(=O)N[C@@H](CCCCN)C(=O)N[C@@H](CC(C)C)C(=O)N[C@@H](CC(C)C)C(=O)N[C@@H](CCCCN)C(N)=O)C(C)C	–	SH1000 GFP-expressing, nutrient broth	20 h, 37 °C	100 µM
CC[C@H](C)[C@H](NC(=O)[C@H](C)NC(=O)[C@@H]1CCCN1C(=O)[C@@H](NC(=O)[C@@H](NC(=O)[C@H](Cc1c[nH]cn1)NC(=O)[C@H](CO)NC(=O)[C@@H](NC(=O)[C@@H](NC(=O)[C@H](CO)NC(=O)CNC(=O)[C@H](CC(C)C)NC(=O)[C@H](CC(C)C)NC(=O)CNC(=O)[C@H](CC(C)C)NC(=O)[C@H](CC(C)C)NC(=O)CN)C(C)C)C(C)C)C(C)C)C(C)C)C(=O)N[C@H](C(=O)NCC(=O)N[C@@H](Cc1c[nH]cn1)C(=O)N[C@@H](Cc1ccccc1)C(N)=O)C(C)C	broth microdilution	USA300 LAC	37 °C	6.2 µM
FFPKVAGVAAKVLKKFCTISKKC (disulfide 17-23 (inferred)) (disulfide)	–	MRSA 12493	18 h, 37 °C	> 128 µM
CC[C@H](C)[C@H](NC(=O)[C@H](CCCCN)NC(=O)[C@H](CCCNC(=N)N)NC(=O)[C@@H](NC(=O)[C@H](CC(C)C)NC(=O)[C@H](CCCCN)NC(=O)[C@H](CC(C)C)NC(=O)[C@@H](NC(=O)[C@H](CCCCN)NC(=O)CNC(=O)[C@H](Cc1ccccc1)NC(=O)[C@@H](N)Cc1ccccc1)C(C)C)[C@@H](C)CC)C(=O)N[C@@H](Cc1ccccc1)C(N)=O	broth microdilution	USA300 LAC	37 °C	3.1 µM
CC[C@H](C)[C@H](NC(=O)CNC(=O)[C@H](CC(=O)O)NC(=O)[C@H](CCCNC(=N)N)NC(=O)[C@@H](NC(=O)[C@H](CC(N)=O)NC(=O)[C@H](CCCNC(=N)N)NC(=O)CNC(=O)[C@@H](NC(=O)[C@H](CCCCN)NC(=O)[C@H](CCC(=O)O)NC(=O)[C@@H](NC(=O)[C@H](CCCCN)NC(=O)[C@H](CCCCN)NC(=O)[C@H](Cc1ccccc1)NC(=O)[C@@H](NC(=O)[C@H](CCCCN)NC(=O)[C@H](Cc1c[nH]c2ccccc12)NC(=O)[C@@H](N)CCCCN)[C@@H](C)CC)[C@@H](C)CC)C(C)C)C(C)C)C(=O)N[C@H](C(=O)N[C@@H](CCCCN)C(=O)N[C@@H](C)C(=O)NCC(=O)N1CCC[C@H]1C(=O)N[C@@H](C)C(=O)N[C@H](C(=O)N[C@@H](CCC(N)=O)C(=O)N[C@H](C(=O)N[C@H](C(=O)NCC(=O)N[C@@H](CCC(N)=O)C(=O)N[C@@H](C)C(=O)N[C@H](C(=O)N[C@@H](CO)C(=O)N[C@H](C(=O)N[C@@H](C)C(=O)N[C@@H](CCCCN)C(N)=O)[C@@H](C)CC)[C@@H](C)O)C(C)C)C(C)C)C(C)C)[C@@H](C)CC	broth microdilution	ATCC 29213	20 h, 37 °C	> 200 µg/mL
CC(C)C[C@H](NC(=O)[C@H](C)NC(=O)CNC(=O)[C@@H](NC(=O)[C@@H](NC(=O)[C@H](CCCCN)NC(=O)[C@H](CCCCN)NC(=O)[C@@H](NC(=O)[C@H](CC(C)C)NC(=O)[C@H](CCCCN)NC(=O)[C@H](CC(C)C)NC(=O)[C@H](CC(C)C)NC(=O)[C@@H](N)CCCCN)C(C)C)C(C)C)C(C)C)C(=O)NCC(N)=O	–	ATCC 43300, CAMHB	18 h, 37 °C	> 22 µM
CC[C@H](C)[C@H](NC(=O)[C@H](CC(C)C)NC(=O)CNC(=O)[C@H](CO)NC(=O)[C@@H](NC(=O)[C@H](CC(C)C)NC(=O)[C@@H](N)CC(N)=O)C(C)C)C(=O)N[C@@H](CCC(=O)O)C(=O)N[C@@H](C)C(=O)N[C@@H](CCCNC(=N)N)C(=O)N[C@@H](CCCCN)C(=O)N[C@@H](Cc1ccc(O)cc1)C(=O)N[C@@H](CC(C)C)C(=O)N[C@@H](CCC(=O)O)C(=O)N[C@@H](CCC(N)=O)C(=O)N[C@@H](CC(C)C)C(=O)N[C@@H](Cc1c[nH]cn1)C(=O)N[C@@H](CCCNC(=N)N)C(=O)N[C@@H](CCCCN)C(=O)N[C@@H](CC(C)C)C(=O)N[C@@H](CCCCN)C(=O)N[C@@H](CC(N)=O)C(=O)N[C@@H](CCCNC(=N)N)C(=O)N[C@@H](CCCCN)C(=O)N[C@H](C(=O)O)C(C)C	broth microdilution	USA300 LAC	37 °C	> 92 µM
CCCCCCCCCC1CC(=O)c2c(O)cc(O)cc2O1 (centres unmarked)	broth microdilution	MRSA NRS70	–	3.13 to 6.25 µg/mL
CC[C@H](C)[C@H](NC(=O)[C@H](CCCCN)NC(=O)[C@H](CCC(=O)O)NC(=O)[C@H](CCCCN)NC(=O)[C@H](CO)NC(=O)[C@H](CCCCN)NC(=O)[C@H](CCCNC(=N)N)NC(=O)[C@H](Cc1ccccc1)NC(=O)[C@H](Cc1ccccc1)NC(=O)[C@H](CC(=O)O)NC(=O)CNC(=O)[C@H](CC(C)C)NC(=O)[C@@H](N)CC(C)C)C(=O)NCC(=O)N[C@@H](CCCCN)C(=O)N[C@@H](CCC(=O)O)C(=O)N[C@@H](Cc1ccccc1)C(=O)N[C@@H](CCCCN)C(=O)N[C@@H](CCCNC(=N)N)C(=O)N[C@H](C(=O)N[C@H](C(=O)N[C@@H](CCC(N)=O)C(=O)N[C@@H](CCCNC(=N)N)C(=O)N[C@H](C(=O)N[C@@H](CCCCN)C(=O)N[C@@H](CC(=O)O)C(=O)N[C@@H](Cc1ccccc1)C(=O)N[C@@H](CC(C)C)C(=O)N[C@@H](CCCNC(=N)N)C(=O)N[C@@H](CC(N)=O)C(=O)N[C@@H](CC(C)C)C(=O)N[C@H](C(=O)N1CCC[C@H]1C(=O)N[C@@H](CCCNC(=N)N)C(=O)N[C@H](C(=O)N[C@@H](CCC(=O)O)C(=O)N[C@@H](CO)C(=O)O)[C@@H](C)O)C(C)C)[C@@H](C)CC)C(C)C)[C@@H](C)CC	broth microdilution	USA300 JE2 wild type	18 to 20 h	192 µg/mL
CN[C@H](CC(C)C)C(=O)N[C@H]1C(=O)N[C@@H](CC(N)=O)C(=O)N[C@H]2C(=O)N[C@H]3C(=O)N[C@H](C(=O)N[C@H](C(=O)O)c4cc(O)cc(O)c4-c4cc3ccc4O)[C@H](O)c3ccc(c(Cl)c3)Oc3cc2cc(c3O[C@@H]2O[C@H](CO)[C@@H](O)[C@H](O)[C@H]2O[C@H]2C[C@](C)(N)[C@H](O)[C@H](C)O2)Oc2ccc(cc2Cl)[C@H]1O	–	MRSA USA300	–	0.5 to 1 µM
CC(C)C[C@H](NC(=O)[C@H](CC(C)C)NC(=O)[C@H](CCCCN)NC(=O)[C@H](CC(C)C)NC(=O)[C@H](CC(C)C)NC(=O)[C@H](CCCCN)NC(=O)[C@H](CCCCN)NC(=O)[C@H](CC(C)C)NC(=O)[C@H](CC(C)C)NC(=O)[C@H](CCCCN)NC(=O)[C@H](CC(C)C)NC(=O)[C@H](CC(C)C)NC(=O)[C@@H](N)CCCCN)C(=O)N[C@@H](CCCCN)C(N)=O	–	SH1000 GFP-expressing, nutrient broth	20 h, 37 °C	10 µM
CC[C@H](C)[C@H](NC(=O)[C@H](Cc1c[nH]cn1)NC(=O)[C@H](Cc1c[nH]cn1)NC(=O)[C@H](Cc1ccccc1)NC(=O)[C@@H](N)Cc1ccccc1)C(=O)N[C@@H](Cc1ccccc1)C(=O)N[C@@H](CCCNC(=N)N)C(=O)NCC(=O)N[C@@H](CCCCN)C(=O)N[C@H](C(=O)N[C@@H](Cc1c[nH]cn1)C(=O)N[C@H](C(=O)NCC(=O)N[C@@H](CCCCN)C(=O)N[C@H](C(=O)N[C@H](C(=O)N[C@@H](Cc1c[nH]cn1)C(=O)N[C@@H](CCCNC(=N)N)C(=O)N[C@@H](CC(C)C)C(=O)N[C@H](C(=O)N[C@H](C(=O)NCC(N)=O)[C@@H](C)O)C(C)C)[C@@H](C)CC)[C@@H](C)O)C(C)C)C(C)C	broth microdilution	ATCC 25923	18 h, 37 °C	3.1 µg/mL
CC(C)C[C@H](NC(=O)[C@H](CCC(=O)O)NC(=O)[C@H](CCC(=O)O)NC(=O)[C@@H](NC(=O)[C@H](CCCNC(=N)N)NC(=O)[C@H](CCC(N)=O)NC(=O)[C@@H](N)CCCNC(=N)N)C(C)C)C(=O)N[C@@H](CO)C(=O)N[C@@H](CCCCN)C(=O)N[C@@H](Cc1ccccc1)C(=O)N[C@@H](CO)C(=O)N[C@@H](CCCCN)C(=O)N[C@@H](CCCCN)C(=O)NCC(=O)N[C@@H](C)C(=O)N[C@@H](C)C(=O)N[C@@H](C)C(=O)N[C@@H](CCCNC(=N)N)C(=O)N[C@@H](CCCNC(=N)N)C(=O)N[C@@H](CCCNC(=N)N)C(=O)N[C@@H](CCCCN)C(=O)O	broth microdilution	USA300 LAC	37 °C	> 84 µM
CC[C@H](C)[C@H](NC(=O)[C@H](C)NC(=O)[C@@H](NC(=O)[C@H](C)NC(=O)CNC(C)=O)[C@@H](C)O)C(=O)N[C@@H](CCCCN)C(=O)N[C@@H](CCC(N)=O)C(=O)N[C@H](C(=O)N[C@@H](CCCCN)C(=O)N[C@@H](CCCCN)C(=O)N[C@@H](CC(C)C)C(=O)N[C@@H](Cc1ccccc1)C(=O)N[C@@H](CCCCN)C(=O)N[C@@H](CCCCN)C(=O)N[C@@H](CCCCN)C(=O)NCC(=O)NCC(N)=O)C(C)C	broth microdilution	ATCC 25923	24 h, 37 °C	310 µM
CC[C@H](C)[C@H](NC(=O)[C@H](CC(=O)O)NC(=O)[C@H](Cc1ccccc1)NC(=O)[C@H](CC(C)C)NC(=O)CN)C(=O)N[C@H](C(=O)N[C@@H](CCCCN)C(=O)N[C@@H](CCCCN)C(=O)N[C@H](C(=O)N[C@H](C(=O)NCC(=O)N[C@@H](CC(C)C)C(=O)N[C@@H](CC(C)C)C(=O)N[C@@H](CCCCN)C(N)=O)C(C)C)C(C)C)C(C)C	–	SH1000 GFP-expressing, nutrient broth	20 h, 37 °C	50 µM
C[C@H](N)C(=O)N[C@@H](CS)C(=O)N1CCC[C@H]1C(=O)N[C@@H](Cc1c[nH]cn1)C(=O)N[C@@H](CCCNC(=N)N)C(=O)N[C@@H](CS)C(=O)O	broth microdilution	MTCC 96	37 °C	125 µg/mL
COc1cccc(C(N)=O)c1O	–	ATCC 29213	50 µg/mL	inactive
O=[N+]([O-])c1ccc(Sc2nc3ccccc3s2)c([N+](=O)[O-])c1	microbial growth	ATCC25923	–	> 500 µg/mL

A few entries again:
Substance	test	system	setting	MIC
C[C@H](N)C(=O)N[C@@H](CS)C(=O)N1CCC[C@H]1C(=O)N[C@@H](Cc1c[nH]cn1)C(=O)N[C@@H](CCCNC(=N)N)C(=O)N[C@@H](CS)C(=O)O	broth microdilution	MTCC 96	37 °C	125 µg/mL
COc1cccc(C(N)=O)c1O	–	ATCC 29213	50 µg/mL	inactive
